Measured values pooled from the literature.
Numbered parts are unrelated; each lists some results of a single study.

Series 1
Target: Ras GTPase-activating protein-binding protein 1, full length (G3BP1, Homo sapiens, UniProt Q13283)
UniProt Q13283, sequence (whole entry, looked up): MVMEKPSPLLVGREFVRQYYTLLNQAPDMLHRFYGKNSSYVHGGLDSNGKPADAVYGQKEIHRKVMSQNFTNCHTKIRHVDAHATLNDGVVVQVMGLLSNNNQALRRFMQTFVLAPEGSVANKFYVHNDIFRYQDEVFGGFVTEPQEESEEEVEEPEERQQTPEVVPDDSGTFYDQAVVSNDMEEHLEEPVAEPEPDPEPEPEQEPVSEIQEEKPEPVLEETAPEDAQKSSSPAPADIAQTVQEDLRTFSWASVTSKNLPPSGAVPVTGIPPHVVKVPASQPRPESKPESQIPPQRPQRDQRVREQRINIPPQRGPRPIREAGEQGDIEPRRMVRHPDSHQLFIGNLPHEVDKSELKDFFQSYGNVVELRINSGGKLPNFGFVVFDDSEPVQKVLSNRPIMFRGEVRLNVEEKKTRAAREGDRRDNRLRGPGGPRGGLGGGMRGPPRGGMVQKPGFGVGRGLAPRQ
Method: RNA Bind-n-Seq
Molecule type: RNA
Medium: in vitro
Concentration: 200 nM
Setting: whole 134-nt RNA, ends assumed
Together with: 150 mM LiCl
Baseline: input library
Reading: higher = stronger binding
Each molecule: 7-deaza-guanosine replaces G
Constant ends, left off below: GGGAGUUCUACAGUCCGACGAUC … UGGAAUUCUCGGGUGUCAAGG
Strand	log2 enrichment
CACAGACAACACGCACCCACACAGACACAGAGGGAAGGGGUUGGGAUGGGGACAGGGCGCACAGCAGGGCGGGGUAGGACCCCAGCCCCU	0.249
CCUGUGCUACACAUCGUAUGUACCGAAUCGGGCCCCCCGGGGCCCCCCGGCCCCCCGGGGAAAGUAUUAUGUUACGCCGUUCGGAUCUGC	-1.99
AAGUCCUGUGCUACACAUCGUAUGUACCGAAUCAAACCCAAAUUUUUAAACCCAAAAAAGUAUUAUGUUACGCCGUUCGGAUCUGCACUU	1.36
AAGUCCUGUGCUACACAUCGUAUGUACCGAAUCGGGGAAAAAGGGGUGGGGAGGGGAAAGUAUUAUGUUACGCCGUUCGGAUCUGCACUU	0.278
UCCUGUGCUACACAUCGUAUGUACCGAAUCGGGGUUUUUUGGGUUUUUUGGGUUUUUUGGAAAGUAUUAUGUUACGCCGUUCGGAUCUGC	0.701
GCAGGAAGUAAAAACAAAUGGAAAUGCUUCGGAUAGUGGCAGGGGUGGGGGUUGCUAAGGAAAGGCUGGGAUGGGAGUGGGUAAAGAGUU	0.103
AAGUCCUGUGCUACACAUCGUAUGUACCGAAUCGGUUUUUUUGGUUUGGUUUUUGGAAAGUAUUAUGUUACGCCGUUCGGAUCUGCACUU	-1.9
CCUCAAGUCCUGUGCUACACAUCGUAUGUACCGAAUCGGGUGGGUGGGUGGGGAAAGUAUUAUGUUACGCCGUUCGGAUCUGCACUUCCA	-0.934
GCAGGAAGUAAAAACAAAUGGAAAUGCUUCGGAUAGUGGCAGGGGUGGGGGUUGCUAAGGAAAGGGUGGGAUGUGAGUGGGUAAAGAGUU	-0.119
UAACUUUAGAGCAGGAUCUGAUGGAUAUGGCAGUGGACGUGGAUUUGGGGAUGGCUAUAAUGGGUAUGGAGGAGGACCUGGAGGUGGCAA	-0.766
AGUCCUGUGCUACACAUCGUAUGUACCGAAUCGGAAAAAGGAAAAAGGGAAAAAGGGAAAGUAUUAUGUUACGCCGUUCGGAUCUGCACU	-1.18

Series 2
Target: Histone acetyltransferase KAT6A, winged helix 2, GST fusion (KAT6A, Homo sapiens, UniProt Q92794, residues 85-181)
Method: protein binding microarray
Molecule type: double-stranded DNA, one strand shown
Medium: in vitro
Concentration: not given
Setting: 8-mer, flanks averaged, mean of 2 arrays, mostly near background
Baseline: not given
Reading: higher = stronger binding
Residues (chain): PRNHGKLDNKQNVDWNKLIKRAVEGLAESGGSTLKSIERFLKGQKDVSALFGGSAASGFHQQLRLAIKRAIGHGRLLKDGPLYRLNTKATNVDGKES
Strand	E-score
AAGCGAAA	-0.016
AGGCATGG	0.0409
CTTTCCGA	0.0598
CACAATTA	-0.0504
AGTCCATC	-0.0914
CTCCTAAG	-0.00576
ATATATTA	-0.0163
TAGAGTCA	-0.316
GAGTCACC	-0.0962
AACACTCT	0.0127
GACAAAGC	0.111
GTAGGCAA	0.0128
CAAATTTC	0.105
GGCCCGTA	-0.0718
GAAGCCAC	-0.0571
CTTGCCAC	0.00114
ACAGGGCG	0.116
AGGTGTGA	-0.102
ACTTTCAT	-0.0507

Series 3
Target: RNA binding protein fox-1 homolog 2, RRM domain, GST-SBP tag (RBFOX2, Homo sapiens, UniProt O43251-10, residues 100-194)
Method: RNA Bind-n-Seq
Molecule type: RNA
Medium: in vitro
Concentration: 365 nM
Setting: natural RNA segment, single round, ends assumed
Baseline: no-protein control
Reading: higher = stronger binding
Constant ends, left off below: GGGAGUUCUACAGUCCGACGAUC … UGGAAUUCUCGGGUGCCAA
Construct (chain): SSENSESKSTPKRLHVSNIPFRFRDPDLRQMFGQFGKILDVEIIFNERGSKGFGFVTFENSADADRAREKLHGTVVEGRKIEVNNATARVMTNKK
Strand	RBNS enrichment (R)
UGAGGAACUUCCAGCUUCAGAUUCUGUUACAAGUGUCACUUGCCAAAGGACCUUACUGUUCCUUCUAAGCAUCCCAGCACCUGGUGUGAUCUAGCUUUCCUCCACCCAUA	0.344
CCUCUGGGCACCAGGCGUGCACAUGGUAUACAGACAUAGGUGCAGACAAAACAUCUAUACGUACAGUACCACUAAUAAAUGUUGAGCUCCUGCUGUCCUGUUGGAAAGUU	0.224
CAACUGUCCUAAGGUCACUUCCCAGCCAGCUUAGGAUCUUCAGCAUUUUUAAGAGCUGAAGCUCCCUCUUGCCCUUCUUGUCUACUCCUCACUGCCAGUUGGGGCCUAGG	0.636
UUCUUUUUAGCUAUUCCUACAUACUUGUGUGUCAGCCCAUGUAUGUAGGUGUGACCGAUUUCAAGCAGCCCCUCCACCUGGCCUUUCUCUCUCUCUCUCUGUCUCUGUCU	0.635
ACUGCUGAGGACCCACCCAAUGGAAGGAUUCUUCUCAGCCUUGACCCUGGAGCACUGGGAACAACUGGUCUCCUGUGAUGGCUGGGACUCCUCGCGGGAGGGGACUGCGC	0.317
GUAUCAAAUCUGUAUAUGUUGUAAUAAAACUUAUGCUAGUUUAUUGGAAGUGUUCAAGAAAUAAAAAUCAACUUGUGUACUGAUAAAAUACUCUAGCCUGGGCCAGAGAA	0.463
UAGAAGCCUGUGGGUUUCGAUGGUUUCUUCUAUACACCUUUUUGGUUGACCAGUAUUACUAUACAAUGUAAGUGUUUUAAAAAAUACGAAAGUAAUACUCUGCACCCCUU	0.424
GGCAGAGCAUUUCUGGUCAGUUUCUCCAUGGUGCCUCCCACCCCUUUGUAAAGUGGAUGGACAUGAUGGAAUUCAGUUGUCUCACCCUGAUAGCCUGGGUGUUGAUAUUC	0.342
UUUAUACUUUAAACCCCGCUCCUCAUGGCCUUGGCCCUUUCUGAAGCUGCUUCCUCUUAUAAAAUAGCUUUUGCCGAAACAUAGUUUUUUUUUAGCAGAUCCCAAAAUAU	0.541
GUUCUCUCCUGUGUAAAUGUCACGCCCCACCCCUGUUUCAUGUGGGCACUAACACGUGUGCGUUCCUGGCGGGCACACUCAGGACCGUGCCUCACAGGGCCCACUCCCUG	0.429
ACCAUCAAUAUGUAGACCGUCAUUGACCAAAACAUCCUGAUGUGUGCAUGACUGUACUUUUCAUUAAAUAACAGAUAAGGGGCUAUAGAAUUUGGGGCUCUGACUGAUCA	1.91
GGCGGCAGCAGUUUCAGCGUGCAGUUCCCAAACCCCAAAGCUGACCCUGCGCCCCAUUUGAAUACGGCCAGAGCCUGCUGGUUCACUUUGGGUAGAGCCGUGCCUCUUGG	0.444

Series 4
Target: RING finger protein unkempt homolog, zinc fingers 1-6, GST-SBP tag (UNK, Homo sapiens, UniProt Q9C0B0, residues 30-357)
UniProt Q9C0B0, sequence (30-357, looked up): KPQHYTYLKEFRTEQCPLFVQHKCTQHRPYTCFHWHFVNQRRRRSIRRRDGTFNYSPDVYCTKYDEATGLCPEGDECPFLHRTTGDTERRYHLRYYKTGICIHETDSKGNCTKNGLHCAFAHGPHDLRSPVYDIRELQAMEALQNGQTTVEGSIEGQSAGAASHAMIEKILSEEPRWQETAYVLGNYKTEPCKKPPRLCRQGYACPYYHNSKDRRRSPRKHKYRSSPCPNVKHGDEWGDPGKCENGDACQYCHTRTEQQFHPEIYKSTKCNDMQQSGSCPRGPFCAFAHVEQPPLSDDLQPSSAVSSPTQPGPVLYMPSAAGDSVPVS
Method: RNA Bind-n-Seq
Molecule type: RNA
Medium: in vitro
Concentration: not given
Setting: RNA with constant flanks, human-mouse chimeric sites, ends assumed
Baseline: input RNA pool
Reading: higher = stronger binding
Constant ends, left off below: GGGAGUUCUACAGUCCGACGAUC … CAACAGAGGAUUGAGCAUCA
Strand	bound/input enrichment [ratio]
AACGUGGAACUAAGUUCGCUGGCCCGGCUUCCCAGCUUGAAUAAACUCCGGAAGUUGGAACUUAGUGACAAUAUAAUUUCUGGAGGCUUGGAAGUCCUGGCAGAGAAAUGUCCAAAUCUU	0.295
AGCACAACCCCAGCAAAGCUCAGGAACCCUUGCACAAGUGAACAAAACUGCACCAGCCCAUUUAGCUACAAAAAUGUGCUUAGUCUUACUGACAGAGGAGAGUUUUUCAAUGAACUUGUU	1.45
UCAGGAACUCAGACAAACAUGAAUGUAAAUGAAGUCAUUAGCAACAGAGCAAUUGAAAUGUUAGGAGGUGAACUUGGCAGCAAGAAGCCUGUGCACCCCAACGAUCAUGUUAACAAAAGC	0.147
GUCAACAGCUGCCUCAACCCCAUCCUCUAUGCUUUCUUGGAUGAGAACUUCAAGGCCUGCUUCCGCAAGUUCUGCUGUGCAUCUGCCCUGCGCCGGGACGUGCAGGUGUCUGACCGCGUG	0.394
GACUUUGGGACUGGUCCUCGCAACGCAGCCUUCUAUAGCCCUCAUGGACAUAUAUUAGUAUUAGCUGGAUUUGGAAAUCUUCGAGGACAAAUGGAAGUGUGGGAUGUUAAAAACUACAAG	0.674
UGGCGCCUGCGCUCCCCACUCGUGUUUUUAAGUGUAUUUUUAUAAGAUACAUGUAUUUACAAUUGAGCUUUUGUUACAUAAUGCUGAAAUGCUACUGCAAUAUUAUGAAAAUGUUUCAAU	0.105
CCCUCCCGGGCCACCCAACCCCUCCCGGCUCCCCGCCGAGAUCCAGGUUUCUUCUUAUUUCAUAGCAAAUAAGAAAAAUGUUCUACGCACAUUUUGUCCUCAGUAAACGAGGGCCUCUGG	0.483
AUCAAAUACUUUGGGGACAUCAUUAGUGUGGGACAGAGACUGUUGCAAGGAGCUCGGAUUUUAGGAAUUCCAGUUAUCAUAACGGAACAAUACCCUAAAGGACUUGGCAGCACCGUUCAA	0.187
GUGACUGGUGUUAAGAUUUACCCUCAGAAAAGAACUGCAGUAGUCACCAUAAUUCCAUCUGUGGUGAGUGCCAGUCAGAUUGUGGAGCUGGUCCCAGACCUCAGUUUAGACAUGGGAACU	0.285
GGGACUGAUUCAUCCCAAGGACAGGCCGCCCAGUCUGAUGCCUGGACUGAUGACAGUAUGGAAGGGCCUAGUCAAAAUGUUGAAGCUGAGUCAAUUCAGGAUGCCAUGCAUAUGGCAGAG	0.1
UUGGAAGGACCAGAGCCUAAUCAACUGAAACCACUAGUCAUACAGGCUAUGCCCACCCUAAUAGAACUAAUGAAAGACCCCAGUGUAGUUGUUCGAGACACAACAGCGUGGACUGUGGGC	0.772

Series 5
Target: Sal-like protein 4, full length isoform A (SALL4, Homo sapiens, UniProt Q9UJQ4, residues 1-1053)
UniProt Q9UJQ4, sequence (whole entry, looked up): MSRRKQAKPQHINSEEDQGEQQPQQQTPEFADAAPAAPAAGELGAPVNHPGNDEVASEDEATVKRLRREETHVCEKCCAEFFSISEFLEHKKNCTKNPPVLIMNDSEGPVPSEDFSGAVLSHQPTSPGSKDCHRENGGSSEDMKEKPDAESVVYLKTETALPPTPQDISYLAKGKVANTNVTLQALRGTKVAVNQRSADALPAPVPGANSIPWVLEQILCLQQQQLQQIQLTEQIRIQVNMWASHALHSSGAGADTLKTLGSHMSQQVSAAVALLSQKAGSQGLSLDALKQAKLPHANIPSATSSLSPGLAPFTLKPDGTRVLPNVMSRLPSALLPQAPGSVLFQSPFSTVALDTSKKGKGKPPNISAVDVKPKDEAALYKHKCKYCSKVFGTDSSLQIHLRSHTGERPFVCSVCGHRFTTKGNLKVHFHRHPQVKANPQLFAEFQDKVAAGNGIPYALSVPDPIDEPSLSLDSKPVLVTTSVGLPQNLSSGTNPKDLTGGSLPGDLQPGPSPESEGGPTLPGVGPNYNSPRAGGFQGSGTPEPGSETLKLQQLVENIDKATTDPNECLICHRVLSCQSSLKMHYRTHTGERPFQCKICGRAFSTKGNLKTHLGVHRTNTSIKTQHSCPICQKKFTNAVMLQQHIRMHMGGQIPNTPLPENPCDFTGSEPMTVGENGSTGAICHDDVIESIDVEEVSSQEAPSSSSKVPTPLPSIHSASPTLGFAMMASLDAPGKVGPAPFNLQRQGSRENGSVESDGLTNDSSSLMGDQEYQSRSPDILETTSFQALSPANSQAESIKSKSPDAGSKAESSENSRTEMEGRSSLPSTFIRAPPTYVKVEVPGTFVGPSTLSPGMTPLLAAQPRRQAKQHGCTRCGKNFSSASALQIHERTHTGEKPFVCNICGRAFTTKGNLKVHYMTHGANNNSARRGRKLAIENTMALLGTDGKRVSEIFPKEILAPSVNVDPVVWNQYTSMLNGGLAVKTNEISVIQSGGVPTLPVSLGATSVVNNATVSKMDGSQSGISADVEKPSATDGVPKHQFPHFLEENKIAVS
Method: universal PBM
Molecule type: double-stranded DNA, one strand shown
Medium: in vitro
Concentration: 600 nM
Setting: 8-mer, flanks averaged, mean of replicates
Reading: higher = stronger binding
Strand	E-score
CTTTGGAA	0.162
CTTTAAAG	0.137
CTAACCAC	-0.0101
AAACAGCC	-0.182
AGTTAGGG	-0.17
AGAGGAAG	-0.0866
AGGACTGA	0.0214
ACGGTGAT	-0.0924
CTCTAAGA	0.033
CGAGAGGC	-0.291
TACAAGCA	0.127
CGCTTAGA	-0.202
ATCCTGCA	0.107
CGATGACC	-0.218
TGCCCCCA	-0.101
AGCGGTAG	-0.164
CCCATCGG	-0.205
GGCGAGCC	-0.36
CCTGAATC	0.0889

Excerpt of the above (series 5):
Strand	E-score
CTTTGGAA	0.162
AGGACTGA	0.0214
ATCCTGCA	0.107
AAACAGCC	-0.182
TACAAGCA	0.127
CCTGAATC	0.0889
CTTTAAAG	0.137
